Published values gathered from unrelated publications.
Parts stem from different laboratories: compare values within a part only.
Chain of UniProt Q02750 (whole entry, looked up): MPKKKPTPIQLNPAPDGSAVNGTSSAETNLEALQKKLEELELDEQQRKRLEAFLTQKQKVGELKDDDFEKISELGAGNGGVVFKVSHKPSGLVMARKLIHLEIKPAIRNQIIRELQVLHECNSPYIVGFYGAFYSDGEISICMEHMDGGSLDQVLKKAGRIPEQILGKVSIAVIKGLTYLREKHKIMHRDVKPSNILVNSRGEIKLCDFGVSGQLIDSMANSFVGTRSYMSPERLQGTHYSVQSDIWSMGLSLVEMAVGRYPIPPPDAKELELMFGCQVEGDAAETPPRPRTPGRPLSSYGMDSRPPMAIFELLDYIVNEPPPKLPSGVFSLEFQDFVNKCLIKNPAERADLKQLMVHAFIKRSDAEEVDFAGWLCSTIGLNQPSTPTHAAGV
Chain of UniProt P31751 (whole entry, looked up): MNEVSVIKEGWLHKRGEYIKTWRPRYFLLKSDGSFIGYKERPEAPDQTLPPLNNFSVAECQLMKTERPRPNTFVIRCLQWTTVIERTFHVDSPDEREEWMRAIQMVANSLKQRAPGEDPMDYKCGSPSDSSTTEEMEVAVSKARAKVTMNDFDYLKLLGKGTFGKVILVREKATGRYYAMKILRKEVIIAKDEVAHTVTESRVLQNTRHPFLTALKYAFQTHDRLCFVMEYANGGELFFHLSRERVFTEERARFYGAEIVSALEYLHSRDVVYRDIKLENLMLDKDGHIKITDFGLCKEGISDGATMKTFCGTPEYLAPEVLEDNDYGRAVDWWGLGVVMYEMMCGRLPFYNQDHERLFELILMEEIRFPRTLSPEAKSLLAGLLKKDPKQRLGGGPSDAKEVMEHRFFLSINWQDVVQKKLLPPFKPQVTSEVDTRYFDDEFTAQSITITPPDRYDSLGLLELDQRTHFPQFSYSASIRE
Chain of UniProt O75676 (whole entry, looked up): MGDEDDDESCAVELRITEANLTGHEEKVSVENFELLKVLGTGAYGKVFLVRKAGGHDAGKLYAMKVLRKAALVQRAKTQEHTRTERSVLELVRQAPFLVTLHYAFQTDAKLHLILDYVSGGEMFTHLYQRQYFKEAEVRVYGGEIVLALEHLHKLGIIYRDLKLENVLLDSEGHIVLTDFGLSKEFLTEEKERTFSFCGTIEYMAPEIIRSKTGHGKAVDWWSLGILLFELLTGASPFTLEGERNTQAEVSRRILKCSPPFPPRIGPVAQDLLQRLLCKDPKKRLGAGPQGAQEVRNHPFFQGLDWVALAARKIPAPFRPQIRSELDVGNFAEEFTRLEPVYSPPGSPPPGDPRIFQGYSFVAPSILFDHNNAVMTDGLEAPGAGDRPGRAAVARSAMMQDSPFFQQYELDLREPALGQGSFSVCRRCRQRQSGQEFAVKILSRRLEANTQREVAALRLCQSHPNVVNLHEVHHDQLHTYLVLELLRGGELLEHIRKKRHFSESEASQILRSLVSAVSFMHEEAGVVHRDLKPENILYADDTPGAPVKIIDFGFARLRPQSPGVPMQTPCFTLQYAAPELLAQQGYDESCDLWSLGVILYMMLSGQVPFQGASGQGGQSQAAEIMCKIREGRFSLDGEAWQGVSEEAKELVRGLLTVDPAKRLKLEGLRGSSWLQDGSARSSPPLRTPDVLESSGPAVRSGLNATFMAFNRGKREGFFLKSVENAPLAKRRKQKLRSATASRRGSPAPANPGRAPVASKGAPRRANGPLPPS
Chain of UniProt Q02763 (whole entry, looked up): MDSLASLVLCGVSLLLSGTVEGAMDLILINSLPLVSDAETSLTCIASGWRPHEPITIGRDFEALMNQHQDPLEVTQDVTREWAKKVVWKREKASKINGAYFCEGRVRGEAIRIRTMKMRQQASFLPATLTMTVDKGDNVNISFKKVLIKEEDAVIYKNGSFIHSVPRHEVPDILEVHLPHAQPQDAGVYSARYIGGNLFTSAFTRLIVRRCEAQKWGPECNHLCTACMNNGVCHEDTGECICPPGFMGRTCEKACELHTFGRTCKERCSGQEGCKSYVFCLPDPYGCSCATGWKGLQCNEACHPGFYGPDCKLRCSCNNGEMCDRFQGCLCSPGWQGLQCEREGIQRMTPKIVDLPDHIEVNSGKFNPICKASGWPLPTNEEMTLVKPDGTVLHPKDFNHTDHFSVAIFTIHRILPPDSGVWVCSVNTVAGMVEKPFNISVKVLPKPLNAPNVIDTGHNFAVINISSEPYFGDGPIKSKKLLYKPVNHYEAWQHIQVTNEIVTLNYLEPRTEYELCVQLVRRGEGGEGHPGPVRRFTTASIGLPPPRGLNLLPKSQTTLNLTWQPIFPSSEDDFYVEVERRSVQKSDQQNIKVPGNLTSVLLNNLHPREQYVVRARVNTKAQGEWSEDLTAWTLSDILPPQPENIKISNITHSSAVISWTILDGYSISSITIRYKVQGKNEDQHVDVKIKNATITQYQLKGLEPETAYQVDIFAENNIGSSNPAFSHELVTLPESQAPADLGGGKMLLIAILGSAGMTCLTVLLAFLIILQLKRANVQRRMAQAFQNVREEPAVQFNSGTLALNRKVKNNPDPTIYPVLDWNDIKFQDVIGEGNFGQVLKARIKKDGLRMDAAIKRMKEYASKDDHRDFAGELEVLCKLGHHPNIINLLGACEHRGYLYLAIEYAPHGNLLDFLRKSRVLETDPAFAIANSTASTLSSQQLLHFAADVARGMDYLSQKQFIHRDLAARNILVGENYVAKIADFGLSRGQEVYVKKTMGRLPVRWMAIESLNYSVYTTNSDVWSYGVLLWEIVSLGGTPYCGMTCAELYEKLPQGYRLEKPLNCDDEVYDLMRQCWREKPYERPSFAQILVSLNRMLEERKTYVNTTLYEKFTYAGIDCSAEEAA
Chain of UniProt Q99755 (whole entry, looked up): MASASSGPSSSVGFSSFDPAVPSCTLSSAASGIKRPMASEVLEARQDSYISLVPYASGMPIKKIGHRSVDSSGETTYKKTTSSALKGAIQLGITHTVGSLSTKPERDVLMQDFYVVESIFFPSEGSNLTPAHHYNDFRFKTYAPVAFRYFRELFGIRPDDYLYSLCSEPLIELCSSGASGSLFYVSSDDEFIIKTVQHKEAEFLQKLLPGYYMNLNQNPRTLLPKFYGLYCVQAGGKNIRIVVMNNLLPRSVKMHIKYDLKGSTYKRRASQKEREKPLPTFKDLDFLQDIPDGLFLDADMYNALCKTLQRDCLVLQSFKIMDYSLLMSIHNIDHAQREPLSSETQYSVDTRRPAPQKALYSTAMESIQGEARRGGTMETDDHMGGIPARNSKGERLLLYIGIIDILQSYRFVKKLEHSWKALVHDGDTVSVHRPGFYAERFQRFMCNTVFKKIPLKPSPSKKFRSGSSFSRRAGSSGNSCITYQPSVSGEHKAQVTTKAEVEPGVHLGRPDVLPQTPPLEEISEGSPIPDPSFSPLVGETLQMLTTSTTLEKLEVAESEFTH
Chain of UniProt P08581 (whole entry, looked up): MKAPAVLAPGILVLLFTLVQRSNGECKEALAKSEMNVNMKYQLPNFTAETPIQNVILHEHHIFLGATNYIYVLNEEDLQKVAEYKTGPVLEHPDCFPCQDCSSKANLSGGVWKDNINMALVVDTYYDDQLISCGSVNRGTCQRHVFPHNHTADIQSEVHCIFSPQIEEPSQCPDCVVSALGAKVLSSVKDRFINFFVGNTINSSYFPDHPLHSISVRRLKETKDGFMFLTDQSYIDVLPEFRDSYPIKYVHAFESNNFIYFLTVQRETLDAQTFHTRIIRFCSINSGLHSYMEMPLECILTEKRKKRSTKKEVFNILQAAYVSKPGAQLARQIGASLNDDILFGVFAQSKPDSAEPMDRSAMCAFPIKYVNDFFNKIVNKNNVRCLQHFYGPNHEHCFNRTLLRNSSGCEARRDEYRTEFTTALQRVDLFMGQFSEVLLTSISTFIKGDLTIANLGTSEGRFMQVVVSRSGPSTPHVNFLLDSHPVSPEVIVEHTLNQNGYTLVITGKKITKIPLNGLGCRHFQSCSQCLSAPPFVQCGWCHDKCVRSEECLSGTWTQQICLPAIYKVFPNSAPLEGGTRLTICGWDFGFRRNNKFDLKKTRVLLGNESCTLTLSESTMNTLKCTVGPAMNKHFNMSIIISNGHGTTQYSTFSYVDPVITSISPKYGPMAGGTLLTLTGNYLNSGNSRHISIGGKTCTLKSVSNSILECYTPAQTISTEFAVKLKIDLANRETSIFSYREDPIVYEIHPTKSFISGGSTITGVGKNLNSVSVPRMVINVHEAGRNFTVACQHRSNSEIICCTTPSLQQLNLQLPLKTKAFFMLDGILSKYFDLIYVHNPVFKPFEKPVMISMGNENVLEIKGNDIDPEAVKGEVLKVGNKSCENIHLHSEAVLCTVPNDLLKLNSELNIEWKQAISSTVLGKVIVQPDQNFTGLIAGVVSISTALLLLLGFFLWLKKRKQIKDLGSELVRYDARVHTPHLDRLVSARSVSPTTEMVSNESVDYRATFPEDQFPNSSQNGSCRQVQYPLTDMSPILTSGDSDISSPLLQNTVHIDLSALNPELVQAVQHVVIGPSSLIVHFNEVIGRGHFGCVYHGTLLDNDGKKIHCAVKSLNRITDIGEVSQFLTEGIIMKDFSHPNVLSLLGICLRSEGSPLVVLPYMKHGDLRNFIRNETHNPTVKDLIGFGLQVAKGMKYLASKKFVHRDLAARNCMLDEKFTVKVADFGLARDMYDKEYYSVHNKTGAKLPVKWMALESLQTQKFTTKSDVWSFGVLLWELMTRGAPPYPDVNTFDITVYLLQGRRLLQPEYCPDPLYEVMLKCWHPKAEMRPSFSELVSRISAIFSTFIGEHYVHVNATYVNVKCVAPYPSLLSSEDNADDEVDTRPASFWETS
Chain of UniProt P06493 (whole entry, looked up): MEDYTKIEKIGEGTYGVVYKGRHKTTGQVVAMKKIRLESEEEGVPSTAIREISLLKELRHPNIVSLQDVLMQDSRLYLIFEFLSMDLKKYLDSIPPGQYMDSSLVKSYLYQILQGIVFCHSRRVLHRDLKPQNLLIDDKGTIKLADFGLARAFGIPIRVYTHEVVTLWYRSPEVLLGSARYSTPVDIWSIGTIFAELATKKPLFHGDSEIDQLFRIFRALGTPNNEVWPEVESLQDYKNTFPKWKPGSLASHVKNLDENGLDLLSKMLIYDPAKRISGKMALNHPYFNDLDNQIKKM

Study 1 — species: mouse; sample: microsomes or S9; tested at: 2 µM; time: 0.5 h
Structure (SMILES) | remaining compound [%]
O=C(c1ccco1)N1CCN(C(=O)c2ccc(C[S+]([O-])Cc3ccccc3Cl)o2)CC1 (centres unmarked) | 4.84
Cc1cnc(C)n1CCNS(=O)(=O)c1cccs1 | 34.4
CCOC(=O)c1c(NC(=O)c2cc(OC)c(OC)c(OC)c2)sc(C)c1-c1ccc(OC)c(OC)c1 | < 1
Cc1nn(C)c(C)c1CN(C)S(=O)(=O)c1c(C)n[nH]c1C | 55
Cc1cc(C(C)(C)c2cc(C)c(N)c(C)c2)cc(C)c1N | 87.3
CCN(CC)c1ccc(/C=N/n2c(C)nnc2C)cc1 | 74.4
CNC(=O)c1cc(Cl)cc(C)c1NC(=O)c1ncc2cccn2c1-c1cnccc1Br | 50.2
Cc1cccc(/N=c2/ncc3c([nH]2)CC(c2ccc(F)cc2)CC3=O)c1 (centres unmarked) | 6.28

Study 2 — Compound: c1ccc(N2CCN(Cc3nc4ccccc4[nH]3)CC2)nc1; technique: competition with immobilised ligand; tested at: 1 µM
target | assay | remaining binding [%]
Phosphatidylinositol 4-phosphate 5-kinase type-1 alpha (PIP5K1A, Homo sapiens, UniProt Q99755) | cell-free assay | 79
Angiopoietin-1 receptor (TEK, Homo sapiens, UniProt Q02763) | cell-free assay | 94
Serine/threonine-protein kinase Nek1 (NEK1, Homo sapiens, UniProt Q96PY6) | binding | 100
Cyclin-dependent kinase-like 3 (CDKL3, Homo sapiens, UniProt Q8IVW4) | binding | 100
Serine/threonine-protein kinase PLK4 (PLK4, Homo sapiens, UniProt O00444) | binding | 99

Study 3 — technique: phase 2a trial; species: idiopathic pulmonary fibrosis patients
Structure (SMILES): CC(C)n1cnc(-c2ccc(F)cc2)c1-c1ncc(C(=O)Nc2ccc(N3CCN(C)CC3)cc2)[nH]1
conditions | patients with cough [%]
dose not given, adverse event grade 4, all dose arms pooled | 0
30 mg once daily, adverse event grade 2 | 0
60 mg once daily, adverse event grade 3 | 0
dose not given, adverse event grade 5, all dose arms pooled | 0
60 mg once daily, adverse event grade 4 | 0

Study 4 — effect on: enzyme activity; mode: inhibitor; tested at: 0.5 µM; relative to: control
Structure (SMILES): CS(=O)(=O)CCNCc1ccc(-c2ccc3ncnc(Nc4ccc(OCc5cccc(F)c5)c(Cl)c4)c3c2)o1
target | remaining activity [%]
RAC-beta serine/threonine-protein kinase (AKT2, Homo sapiens, UniProt P31751) | 105
Dual specificity protein kinase CLK4 (CLK4, Homo sapiens, UniProt Q9HAZ1) | 115
cGMP-dependent protein kinase 2 (PRKG2, Homo sapiens, UniProt Q13237) | 108
Discoidin domain-containing receptor 2 (DDR2, Homo sapiens, UniProt Q16832) | 107
Ribosomal protein S6 kinase alpha-4 (RPS6KA4, Homo sapiens, UniProt O75676) | 93.4
Mitogen-activated protein kinase 1 (MAPK1, Homo sapiens, UniProt P28482) | 102
Hepatocyte growth factor receptor (MET, Homo sapiens, UniProt P08581) | 84.1
Vascular endothelial growth factor receptor 2 (KDR, Homo sapiens, UniProt P35968) | 96.6
Calcium/calmodulin-dependent protein kinase type 1B (PNCK, Homo sapiens, UniProt Q6P2M8) | 98.1
Mitogen-activated protein kinase 14 (MAPK14, Homo sapiens, UniProt Q16539) | 101
Dual specificity mitogen-activated protein kinase kinase 1 (MAP2K1, Homo sapiens, UniProt Q02750) | 105
Serine/threonine-protein kinase PAK 3 (PAK3, Homo sapiens, UniProt O75914) | 105
Serine/threonine-protein kinase MARK2 (MARK2, Homo sapiens, UniProt Q7KZI7) | 137
Rho-associated protein kinase 1 (ROCK1, Homo sapiens, UniProt Q13464) | 108
Cyclin-dependent kinase 1, with cyclin A (CDK1, Homo sapiens, UniProt P06493) | 101
Serine/threonine-protein kinase MRCK beta (CDC42BPB, Homo sapiens, UniProt Q9Y5S2) | 95.7
Serine/threonine-protein kinase Nek3 (NEK3, Homo sapiens, UniProt P51956) | 99.6
Dual specificity protein kinase CLK3 (CLK3, Homo sapiens, UniProt P49761) | 107
MAP/microtubule affinity-regulating kinase 4 (MARK4, Homo sapiens, UniProt Q96L34) | 104
Serine/threonine-protein kinase PLK3 (PLK3, Homo sapiens, UniProt Q9H4B4) | 105
Serine/threonine-protein kinase tousled-like 2 (TLK2, Homo sapiens, UniProt Q86UE8) | 83.9
Myosin-IIIb (MYO3B, Homo sapiens, UniProt Q8WXR4) | 96.1
Mitogen-activated protein kinase 11 (MAPK11, Homo sapiens, UniProt Q15759) | 101
Serine/threonine-protein kinase DCLK2 (DCLK2, Homo sapiens, UniProt Q8N568) | 101

Study 5 — cell line: HaCaT; tested at: 100 µM; time: 18 h
SMILES | viability [%]
c1cc(CN2CCCNCCNCCCNCC2)ccc1CN1CCCNCCNCCCNCC1 | 112
CC(=O)CCCCn1c(=O)c2c(ncn2C)n(C)c1=O | 77
CCOC(=O)C1=C(C)NC(C)=C(C(=O)OCC)C1c1ccccc1/C=C/C(=O)OC(C)(C)C | 18.3
CO[C@]12C[C@@H](COC(=O)c3cncc(Br)c3)CN(C)[C@@H]1Cc1cn(C)c3cccc2c13 | 18.6
CC(C)(C)NCC(O)c1cc(O)cc(O)c1 (centres unmarked) | 112
O=C(N[C@H](CO)[C@H](O)c1ccc([N+](=O)[O-])cc1)C(Cl)Cl | 118

Study 6 — cell line: mouse MPNST tumor cells; technique: high-content nuclear imaging; refers to: cell number; tested at: 10 µM; time: 12 h; notes: mean of 2 replicates; relative to: plate mean; reading: higher = more cells
SMILES | nuclei count
CC(C)(Cc1ccc2ccccc2c1)NC[C@@H](O)COc1cccc(Cl)c1C#N | -6.56 z-score
CN1CCN(CC(=O)N2c3ccccc3C(=O)Nc3cccnc32)CC1 | 2.35 z-score
CC(C)N1CCN(S(=O)(=O)c2ccc(NC(=O)c3ccc(C(F)(F)F)cc3[N+](=O)[O-])cc2)CC1 | 2.45 z-score
Cc1cc(C)c(C2=NOC3C4CCC(C4)C23)c(C)c1 (centres unmarked) | 0.488 z-score
O=C(O)CCC(=O)c1ccc(-c2ccccc2)cc1 | -0.131 z-score

For quick reference, copied from above (study 2):
target | assay | remaining binding [%]
Angiopoietin-1 receptor (TEK, Homo sapiens, UniProt Q02763) | cell-free assay | 94
Serine/threonine-protein kinase Nek1 (NEK1, Homo sapiens, UniProt Q96PY6) | binding | 100
Cyclin-dependent kinase-like 3 (CDKL3, Homo sapiens, UniProt Q8IVW4) | binding | 100
Serine/threonine-protein kinase PLK4 (PLK4, Homo sapiens, UniProt O00444) | binding | 99
